Experimental data collected from several papers.
Protocols differ between the studies behind these lines.
Sequence of UniProt Q13233 (whole entry, looked up): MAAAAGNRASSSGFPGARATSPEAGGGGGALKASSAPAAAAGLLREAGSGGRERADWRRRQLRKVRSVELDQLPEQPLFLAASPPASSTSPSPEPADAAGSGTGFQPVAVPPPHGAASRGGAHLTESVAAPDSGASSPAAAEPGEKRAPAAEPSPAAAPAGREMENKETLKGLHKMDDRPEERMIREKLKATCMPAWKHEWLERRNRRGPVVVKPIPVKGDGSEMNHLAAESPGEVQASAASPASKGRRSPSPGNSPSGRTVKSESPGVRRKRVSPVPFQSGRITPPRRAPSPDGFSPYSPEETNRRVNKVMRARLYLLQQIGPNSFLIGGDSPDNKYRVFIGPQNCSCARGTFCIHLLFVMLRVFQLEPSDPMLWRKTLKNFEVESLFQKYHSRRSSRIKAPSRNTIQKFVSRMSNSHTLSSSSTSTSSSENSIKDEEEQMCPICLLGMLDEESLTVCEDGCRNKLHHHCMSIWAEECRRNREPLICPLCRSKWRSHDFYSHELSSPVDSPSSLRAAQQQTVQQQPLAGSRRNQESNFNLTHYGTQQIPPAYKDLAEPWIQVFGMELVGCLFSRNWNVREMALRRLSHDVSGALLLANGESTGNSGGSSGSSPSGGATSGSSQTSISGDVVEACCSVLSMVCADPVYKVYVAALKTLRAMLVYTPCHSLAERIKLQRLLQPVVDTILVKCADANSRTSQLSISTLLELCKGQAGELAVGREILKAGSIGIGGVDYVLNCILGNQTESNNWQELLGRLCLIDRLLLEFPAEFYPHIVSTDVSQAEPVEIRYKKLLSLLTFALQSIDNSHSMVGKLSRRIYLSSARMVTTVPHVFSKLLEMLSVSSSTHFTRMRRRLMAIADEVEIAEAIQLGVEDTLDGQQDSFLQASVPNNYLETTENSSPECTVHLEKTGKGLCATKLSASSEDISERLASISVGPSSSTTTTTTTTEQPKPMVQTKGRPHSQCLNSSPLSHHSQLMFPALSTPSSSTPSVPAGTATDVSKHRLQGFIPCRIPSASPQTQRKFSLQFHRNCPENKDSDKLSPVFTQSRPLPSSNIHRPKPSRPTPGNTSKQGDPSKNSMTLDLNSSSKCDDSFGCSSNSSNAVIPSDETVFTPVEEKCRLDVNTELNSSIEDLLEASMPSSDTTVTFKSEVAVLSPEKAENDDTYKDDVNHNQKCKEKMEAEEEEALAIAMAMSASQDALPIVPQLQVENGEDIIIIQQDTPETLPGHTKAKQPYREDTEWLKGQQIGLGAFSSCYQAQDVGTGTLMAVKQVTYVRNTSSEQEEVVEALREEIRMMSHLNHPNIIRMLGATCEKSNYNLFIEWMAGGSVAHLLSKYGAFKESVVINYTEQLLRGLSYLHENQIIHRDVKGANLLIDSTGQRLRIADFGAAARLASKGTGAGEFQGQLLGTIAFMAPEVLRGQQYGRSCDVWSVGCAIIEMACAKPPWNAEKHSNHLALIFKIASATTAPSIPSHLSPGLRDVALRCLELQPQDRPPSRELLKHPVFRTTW
Sequence of UniProt Q15303 (whole entry, looked up): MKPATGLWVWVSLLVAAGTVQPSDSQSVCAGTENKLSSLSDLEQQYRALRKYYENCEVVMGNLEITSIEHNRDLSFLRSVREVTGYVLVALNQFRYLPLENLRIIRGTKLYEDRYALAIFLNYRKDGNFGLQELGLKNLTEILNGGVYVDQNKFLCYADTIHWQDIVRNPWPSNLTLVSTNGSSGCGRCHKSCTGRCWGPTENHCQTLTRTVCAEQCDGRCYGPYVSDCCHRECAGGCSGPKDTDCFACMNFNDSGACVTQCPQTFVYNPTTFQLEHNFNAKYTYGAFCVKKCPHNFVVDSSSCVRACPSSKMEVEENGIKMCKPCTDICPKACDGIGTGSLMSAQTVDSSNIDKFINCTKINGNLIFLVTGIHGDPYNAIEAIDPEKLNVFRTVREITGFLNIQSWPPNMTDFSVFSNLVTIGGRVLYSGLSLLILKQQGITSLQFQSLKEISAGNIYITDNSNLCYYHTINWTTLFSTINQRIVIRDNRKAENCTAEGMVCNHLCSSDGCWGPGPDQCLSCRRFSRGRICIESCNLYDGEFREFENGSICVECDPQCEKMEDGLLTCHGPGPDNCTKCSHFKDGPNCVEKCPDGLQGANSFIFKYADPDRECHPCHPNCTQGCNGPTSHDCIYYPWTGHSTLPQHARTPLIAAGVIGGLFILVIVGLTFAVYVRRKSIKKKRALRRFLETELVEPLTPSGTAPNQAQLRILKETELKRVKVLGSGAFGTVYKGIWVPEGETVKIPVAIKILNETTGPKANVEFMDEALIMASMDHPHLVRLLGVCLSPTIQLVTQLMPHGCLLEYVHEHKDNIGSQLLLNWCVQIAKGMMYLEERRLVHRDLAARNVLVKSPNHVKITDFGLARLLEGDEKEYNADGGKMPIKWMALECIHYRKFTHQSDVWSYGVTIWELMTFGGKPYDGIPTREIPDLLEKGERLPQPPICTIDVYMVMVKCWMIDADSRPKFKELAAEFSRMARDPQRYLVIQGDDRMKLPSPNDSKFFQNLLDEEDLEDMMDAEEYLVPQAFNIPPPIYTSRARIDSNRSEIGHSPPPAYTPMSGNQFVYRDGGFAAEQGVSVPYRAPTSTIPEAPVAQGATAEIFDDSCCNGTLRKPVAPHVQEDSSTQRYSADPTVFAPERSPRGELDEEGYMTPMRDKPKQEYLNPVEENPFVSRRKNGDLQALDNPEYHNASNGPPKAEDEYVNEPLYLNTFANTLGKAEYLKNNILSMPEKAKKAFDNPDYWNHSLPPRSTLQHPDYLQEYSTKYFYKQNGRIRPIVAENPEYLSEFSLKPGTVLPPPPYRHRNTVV
Sequence of UniProt Q99558 (whole entry, looked up): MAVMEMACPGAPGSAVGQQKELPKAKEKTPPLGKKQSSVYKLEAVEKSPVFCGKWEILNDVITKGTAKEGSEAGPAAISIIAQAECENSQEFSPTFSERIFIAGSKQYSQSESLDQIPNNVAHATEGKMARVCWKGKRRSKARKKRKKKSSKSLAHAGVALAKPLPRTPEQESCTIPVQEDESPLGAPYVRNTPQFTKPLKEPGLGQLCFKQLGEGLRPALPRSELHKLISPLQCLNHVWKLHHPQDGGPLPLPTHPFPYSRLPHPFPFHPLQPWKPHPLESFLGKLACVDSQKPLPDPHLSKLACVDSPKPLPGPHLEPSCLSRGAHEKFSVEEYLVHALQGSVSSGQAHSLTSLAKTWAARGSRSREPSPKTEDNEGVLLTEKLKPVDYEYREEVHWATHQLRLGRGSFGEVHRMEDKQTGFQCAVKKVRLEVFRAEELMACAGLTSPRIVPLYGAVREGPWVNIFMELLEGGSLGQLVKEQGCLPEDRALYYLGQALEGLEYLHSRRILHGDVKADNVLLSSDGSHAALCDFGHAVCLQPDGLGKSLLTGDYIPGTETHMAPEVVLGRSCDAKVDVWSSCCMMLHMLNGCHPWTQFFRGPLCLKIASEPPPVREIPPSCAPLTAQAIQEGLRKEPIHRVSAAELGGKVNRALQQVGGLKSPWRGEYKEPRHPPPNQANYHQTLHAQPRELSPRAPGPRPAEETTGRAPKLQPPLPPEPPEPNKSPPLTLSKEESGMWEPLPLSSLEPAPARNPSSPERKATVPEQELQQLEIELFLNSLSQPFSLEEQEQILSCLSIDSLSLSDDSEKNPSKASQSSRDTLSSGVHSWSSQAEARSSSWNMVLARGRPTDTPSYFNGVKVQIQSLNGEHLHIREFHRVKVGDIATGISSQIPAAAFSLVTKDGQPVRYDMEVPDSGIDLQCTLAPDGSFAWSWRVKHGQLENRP
Sequence of UniProt Q9H0K1 (whole entry, looked up): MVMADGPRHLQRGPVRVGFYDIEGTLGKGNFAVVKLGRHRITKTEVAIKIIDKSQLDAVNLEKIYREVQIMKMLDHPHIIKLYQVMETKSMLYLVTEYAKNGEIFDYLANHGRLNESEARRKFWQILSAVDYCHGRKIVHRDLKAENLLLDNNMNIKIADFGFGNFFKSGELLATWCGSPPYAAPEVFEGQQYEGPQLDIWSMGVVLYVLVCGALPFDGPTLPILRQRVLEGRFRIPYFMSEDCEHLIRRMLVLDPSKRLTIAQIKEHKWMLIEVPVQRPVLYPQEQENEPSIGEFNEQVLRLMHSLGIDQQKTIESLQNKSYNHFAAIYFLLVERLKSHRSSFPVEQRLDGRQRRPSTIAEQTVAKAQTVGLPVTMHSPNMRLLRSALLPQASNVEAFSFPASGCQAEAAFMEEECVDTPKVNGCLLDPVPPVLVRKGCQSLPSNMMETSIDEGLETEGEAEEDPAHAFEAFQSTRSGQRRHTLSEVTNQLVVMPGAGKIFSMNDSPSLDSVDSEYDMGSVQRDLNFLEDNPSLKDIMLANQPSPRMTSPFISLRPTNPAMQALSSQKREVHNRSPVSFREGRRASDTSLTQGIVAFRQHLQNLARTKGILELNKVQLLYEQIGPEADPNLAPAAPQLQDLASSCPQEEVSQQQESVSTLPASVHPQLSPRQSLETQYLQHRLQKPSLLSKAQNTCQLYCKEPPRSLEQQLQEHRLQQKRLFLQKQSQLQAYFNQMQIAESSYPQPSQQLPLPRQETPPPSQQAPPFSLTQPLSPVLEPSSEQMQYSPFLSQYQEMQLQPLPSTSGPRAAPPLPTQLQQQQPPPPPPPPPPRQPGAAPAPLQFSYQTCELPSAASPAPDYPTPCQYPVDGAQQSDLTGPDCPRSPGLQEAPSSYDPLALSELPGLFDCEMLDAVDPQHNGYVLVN

SMILES	target or system	assay	setting	endpoint	result
Cc1ccc2[nH]c3ccccc3c(=O)c2c1	HEK293	cell growth or viability		IC50	> 10 µM
COc1cc(-c2cncc3c2CN(C)Cc2cc(N4CCNCC4)ccc2-3)cc(OC)c1OC	Serine/threonine-protein kinase SIK2 (SIK2, Homo sapiens, UniProt Q9H0K1)	enzyme activity, inhibitor	1 µM	remaining activity	79%
Cc1ccc(C(CS(=O)(=O)c2ccccc2)=NNc2nc(C)c(N=Nc3cccc(C)c3)s2)cc1	WM 266-4	cell growth or viability, MTT	0.4 µM, 48 h	viability	60.9%
CCNC(=S)NNC(=O)COc1ccc2c(C)c(CC)c(=O)oc2c1C	PC-3	cell growth or viability, MTT	250 µg/mL	viability	11.7%
N#Cc1ccc(N2CCN(Cc3ccc(-c4ccc(-c5nc6cc(C(F)(F)F)ccc6[nH]5)cc4)cc3)CC2)nc1	HEK293	cell growth or viability		IC50	> 10 µM
C=C(C)[C@@H]1CC[C@@H](C)C[C@H]1OCc1ccccc1	A2780	cell growth or viability, MTT	30 µM, 72 h	inhibition	42.9%
CC(=NNC(=O)c1ccc(N)cc1)c1ccc(Nc2nnc(-c3ccc(Cl)cc3)c3ccccc23)cc1	MCF7	cell growth or viability, MTT	5 µM, 24 h	viability	5.8%
CNc1ncc2c(/C=C/C(=O)N3CCC(OC)CC3)nn(Cc3cccc(C(F)(F)F)c3)c2n1	FLO-1	cell growth or viability, resazurin	5 days	EC50	1.01 µM
O=C(Nc1ccc(Oc2nnc(-c3ccc(Cl)cc3)c3ccccc23)cc1)c1ccccc1	MCF7	cell growth or viability, MTT	0.625 µM	cell death	96.2%
C[C@@H]1CC[C@@H]([C@](O)(CNCc2cccc3ccccc23)COCc2ccccc2)[C@H](OCc2ccccc2)C1	HeLa	cell growth or viability, MTT	30 µM, 72 h	inhibition	97.3%
CC(=NNC(=O)c1ccccc1Br)c1ccc(Nc2nnc(-c3ccc(Cl)cc3)c3ccccc23)cc1	MCF7	cell growth or viability, MTT	10 µM, 24 h	viability	5.75%
O=C(O)c1ccc(-c2nn(Cc3ccccc3)c3ccccc23)o1	RBE	cell growth or viability, ATP luminescence	46 µM, 72 h	inhibition	4%
COc1cc2nccc(Oc3ccc(NC(=O)C4(C(=O)Nc5ccc(F)cc5)CC4)cc3)c2cc1OC	MB002	cell growth or viability	7 days	IC50	> 10 µM
C=CC(=O)N1CCC(COCC(=O)N2CCN(c3nc(-c4cnc(N)nc4C(F)F)nc(N4CCOC[C@@H]4C)n3)CC2)CC1	Mitogen-activated protein kinase kinase kinase 14 (MAP3K14, Homo sapiens, UniProt Q99558)	binding, competition with immobilised ligand	1 µM	remaining binding	100%
CCCCC(=O)Nc1ccc(-c2ccc3ncn(CCC)c(=O)c3c2)cn1	Mitogen-activated protein kinase kinase kinase 1 (MAP3K1, Homo sapiens, UniProt Q13233)	binding, competition with immobilised ligand	0.5 µM	remaining binding	100%
CNc1ncc2c(/C=C/C(=O)N3CCCCC3)nn(CC3CCCC3)c2n1	FLO-1	cell growth or viability, resazurin	5 days	EC50	9.97 µM
CC(=NNC(N)=S)c1ccc(Nc2nnc(-c3ccc(Cl)cc3)c3ccccc23)cc1	MCF7	cell growth or viability, MTT	0.625 µM	cell death	95.4%
Cc1noc(NS(=O)(=O)c2ccc(N=NN(C)O)cc2)c1C		ABTS scavenging	300 µg/mL	inhibition	98.9%
CCc1c(C)c2ccc(OCc3nnc(S)n3N)c(C)c2oc1=O	PC-3	cell growth or viability, MTT	1000 µg/mL	viability	3.26%
CC(=NNC(=O)c1cccnc1)c1ccc(Nc2nnc(-c3ccc(Cl)cc3)c3ccccc23)cc1	MCF7	cell growth or viability, MTT	10 µM, 24 h	viability	4.87%
CCN(Cc1cccc(OC)c1)c1ccc(CO)c(Cl)c1	RBE	cell growth or viability, ATP luminescence	46 µM, 72 h	inhibition	82%
CC(=NNC(=O)c1ccccc1O)c1ccc(Nc2nnc(-c3ccc(Cl)cc3)c3ccccc23)cc1	MCF7	cell growth or viability, MTT	10 µM	cell death	94.7%
CCc1c(C)c2ccc(OCC(=O)NNC(=S)Nc3ccccc3)c(C)c2oc1=O	PC-3	cell growth or viability, MTT	250 µg/mL	viability	2.75%
Cc1cc([C@@H](C)Nc2ccccc2C(=O)O)c2nc(N3CCC(F)(F)CC3)c(C#N)c(=O)n2c1	Receptor tyrosine-protein kinase erbB-4 (ERBB4, Homo sapiens, UniProt Q15303)	binding, competition with immobilised ligand	10 µM	remaining binding	100%
O=C(Nc1ccccc1)Nc1ccc(Oc2nnc(-c3ccc(Cl)cc3)c3ccccc23)cc1	MCF7	cell growth or viability, MTT	10 µM	cell death	94.6%
CN(C)c1ccc(C=CC(=O)NC(=O)c2ccccc2O)cc1	HEK293	cell growth or viability		IC50	> 10 µM
CC(=NNC(=S)Nc1ccccc1)c1ccc(Nc2nnc(-c3ccc(Cl)cc3)c3ccccc23)cc1	MCF7	cell growth or viability, MTT	0.312 µM, 24 h	viability	99.8%
Cc1cccc(N(O)N=Nc2ccc(S(=O)(=O)Nc3onc(C)c3C)cc2)c1		ABTS scavenging	300 µg/mL	inhibition	76.8%
C[C@@H]1CC[C@@H]([C@](O)(CNCc2ccccc2)COCc2ccccc2)[C@H](OCc2ccccc2)C1	HeLa	cell growth or viability, MTT	30 µM, 72 h	inhibition	98.7%
COc1ccc2c(c1)[C@]1(C[C@H]1c1ccc3c(/C=C/c4ccc(CN5C[C@@H](C)O[C@@H](C)C5)cc4)n[nH]c3c1)C(=O)N2	MB002	cell growth or viability	7 days	IC50	0.0042 µM
